Results gathered from unrelated publications.
Protocols differ between the studies behind these lines.

Compound | organism | test | system | conditions | how to read | MIC
NC[C@H]1O[C@H](O[C@H]2[C@H](O)[C@@H](O[C@H]3O[C@H](CO)[C@@H](O)[C@H](N)[C@H]3O)[C@H](N)C[C@@H]2N)[C@H](O)[C@@H](O)[C@@H]1O | Vibrio alginolyticus | broth dilution |  | 24 h |  | 20 to 40 µM
CC(=O)NC[C@H]1CN(c2ccc(N3CCOCC3)c(F)c2)C(=O)O1 | Lactobacillus gasseri |  | ATCC 19992 |  |  | 5.93 µM
N=C(N)c1ccc(OCc2cccc(COc3ccc(C(=N)N)cc3)c2)cc1 | Escherichia coli |  | BW25113 | compound alone, rifampicin checkerboard |  | > 200 µg/mL
C#CCOC(=O)ON=C1C=CC(=C(C#N)c2ccccc2)C=C1 | Clavispora lusitaniae | broth dilution | ATCC 34449 | 48 h, 37 °C |  | 64 µg/mL
C[C@@H](c1ncncc1F)[C@](O)(Cn1cncn1)c1ccc(F)cc1F | Blastomyces dermatitidis |  | BD-3 |  |  | ≤ 0.03 µg/mL
CC1(C)SC2C(NC(=O)C(NC(=O)C3=C(O)C(Cc4ccc([N+](=O)[O-])cc4)NC3=O)c3ccccc3)C(=O)N2C1C(=O)O (centres unmarked) | Escherichia coli | broth microdilution | ATCC 25922 wild type | no clavulanic acid |  | 25 µg/mL
CCCCCCCCCC(=O)N[C@@H](Cc1c[nH]c2ccccc12)C(=O)N[C@H](CC(N)=O)C(=O)N[C@@H](CC(=O)O)C(=O)N[C@@H]1C(=O)NCC(=O)N[C@@H](CCCN)C(=O)N[C@@H](CC(=O)O)C(=O)N[C@H](C)C(=O)N[C@@H](CC(=O)O)C(=O)NCC(=O)N[C@H](CO)C(=O)N[C@@H]([C@H](C)CC(=O)O)C(=O)N[C@@H](CC(=O)c2ccccc2N)C(=O)O[C@@H]1C | Staphylococcus aureus |  | SH1000 | with: menaquinone-4, molar ratio 0.5 |  | 1 µg/mL
C[C@H]1COc2c(N3CCN(C)CC3)c(F)cc3c(=O)c(C(=O)O)cn1c23 | Serratia marcescens | agar dilution | ATCC 21074 susceptible |  |  | 0.12 µg/mL
N=C(N)c1ccc(OCc2ccc(Br)cc2COc2ccc(C(=N)N)cc2)cc1 | Escherichia coli |  | BW25113 | compound alone, with: erythromycin checkerboard |  | 200 µg/mL
CCCCCCC#Cc1cncc(-c2nnc(SCc3ccc(Cl)cc3)n2C)c1 | Mycolicibacterium smegmatis |  |  |  | no activity below value | ≥ 100 µM
N=C(N)c1cccc(OCc2ccc(COc3cccc(C(=N)N)c3)cc2)c1 | Escherichia coli |  | 552100 | compound alone |  | > 200 µg/mL
CCCCCCC#Cc1cncc(-c2nnc(SCc3ccc([N+](=O)[O-])cc3)n2C)c1 | Mycolicibacterium smegmatis |  |  |  | no activity below value | ≥ 100 µM
CNC(C)C1CCC(N)C(OC2C(N)CC(N)C(OC3OCC(C)(O)C(NC)C3O)C2O)O1 (centres unmarked) | Pseudomonas aeruginosa |  | clinical isolate RKI-No_484/15 |  |  | > 8 µg/mL
N=C(N)c1ccc(OCc2ccc(-c3ccccc3)cc2COc2ccc(C(=N)N)cc2)cc1 | Escherichia coli |  | mcr-1 polymyxin-resistant | 20 h, compound alone |  | 200 µg/mL
CC(C)(C)OCC1NC(=O)C(C(=O)NC(C(=O)NC2C(=O)N3C2SC(C)(C)C3C(=O)O)c2ccccc2)=C1O (centres unmarked) | Escherichia coli | broth microdilution | BW25113 wild type | 18 h |  | 25 µg/mL
C=CC(=O)ON=C1C=CC(=C(C#N)c2ccccc2)C=C1 | Clavispora lusitaniae | broth dilution | ATCC 34449 | 48 h, 37 °C |  | 64 µg/mL
Cc1c(CN(C)C(=O)/C=C/c2cnc3c(c2)CCC(=O)N3)oc2ccccc12 | Escherichia coli | broth microdilution | AR-0541 |  |  | > 32 µg/mL
CC1CCC(C(C)C)C(OC2=C(Cl)C(=O)c3ccccc3C2=O)C1 (centres unmarked) | Serratia marcescens | broth microdilution | MTCC 4301 |  |  | 10 µg/mL
CC1(C)S[C@@H]2[C@H](NC(=O)[C@H](N)c3ccccc3)C(=O)N2[C@H]1C(=O)O | Pseudomonas aeruginosa |  | clinical isolate RKI-No_493/15 |  |  | > 16 µg/mL
CC(C)C[C@@H]1NC(=O)[C@@H](Cc2ccccc2)NC(=O)[C@H](CCN)NC(=O)[C@@H](NC(=O)[C@H](CCN)NC(=O)[C@@H](N)[C@@H](C)O)CCNC(=O)[C@H]([C@@H](C)O)NC(=O)[C@H](CCN)NC(=O)[C@H](CCN)NC1=O | Escherichia coli | checkerboard | 552100 | compound alone |  | > 200 µg/mL
COc1cc(C=O)ccc1OC1=C(Cl)C(=O)c2ccccc2C1=O | Serratia marcescens | broth microdilution | MTCC 4301 |  |  | 10 µg/mL
CC1(C)SC2C(NC(=O)C(NC(=O)C3=C(O)C(Cc4ccco4)NC3=O)c3ccccc3)C(=O)N2C1C(=O)O (centres unmarked) | Escherichia coli | broth microdilution | ATCC 25922 wild type | with: clavulanic acid 6 µg/mL |  | 6.25 µg/mL
CCON=C1C=CC(=C(C#N)c2ccccc2)C=C1 | Clavispora lusitaniae | broth dilution | ATCC 34449 | 48 h, 37 °C |  | 256 µg/mL

A few entries again:
Compound | organism | test | system | conditions | how to read | MIC
C[C@H]1COc2c(N3CCN(C)CC3)c(F)cc3c(=O)c(C(=O)O)cn1c23 | Serratia marcescens | agar dilution | ATCC 21074 susceptible |  |  | 0.12 µg/mL
COc1cc(C=O)ccc1OC1=C(Cl)C(=O)c2ccccc2C1=O | Serratia marcescens | broth microdilution | MTCC 4301 |  |  | 10 µg/mL
